Measurements of several laboratories.
Parts stem from different laboratories: compare values within a part only.
Sequence of UniProt Q9NWZ3 (whole entry, looked up): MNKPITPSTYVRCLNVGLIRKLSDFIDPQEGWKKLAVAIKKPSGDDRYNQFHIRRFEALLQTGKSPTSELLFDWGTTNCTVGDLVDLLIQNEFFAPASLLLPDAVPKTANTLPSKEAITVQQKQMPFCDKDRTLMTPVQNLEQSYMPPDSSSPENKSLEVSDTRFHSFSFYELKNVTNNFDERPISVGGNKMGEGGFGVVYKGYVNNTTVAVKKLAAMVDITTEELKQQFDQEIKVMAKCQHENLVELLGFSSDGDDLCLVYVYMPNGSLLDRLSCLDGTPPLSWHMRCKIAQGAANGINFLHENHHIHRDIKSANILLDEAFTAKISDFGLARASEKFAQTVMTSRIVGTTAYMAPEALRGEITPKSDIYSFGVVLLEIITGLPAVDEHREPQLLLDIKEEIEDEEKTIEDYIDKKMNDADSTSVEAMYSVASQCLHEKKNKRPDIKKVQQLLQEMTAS

Study 1 — technique: RNA Bind-n-Seq; form: RNA; matrix: in vitro; tested at: 20 nM; setting: 6-mer, flanks averaged, single round; together with: 150 mM LiCl; reference: input library; direction: higher = stronger binding
Target: TAR DNA-binding protein 43, full length, His tag (TARDBP, Homo sapiens, UniProt Q13148, residues 1-414)
`GGACAA` — result for “6-mer enrichment (R)”: 0.938.
`UGGACU` — result for “6-mer enrichment (R)”: 1.01.
`UGCCGU`: “6-mer enrichment (R)” 0.964.
For `AUUAAC`, “6-mer enrichment (R)” read 0.884.
For `UAAAUU`, “6-mer enrichment (R)” read 0.992.
For `GUUGUC`, “6-mer enrichment (R)” read 1.05.
`CUGCUC`: “6-mer enrichment (R)” 0.889.
`CACGAU` — result for “6-mer enrichment (R)”: 0.806.

Study 2 — technique: aptamer microarray, sandwich; form: DNA with 2'F-ANA; matrix: in vitro; tested at: 200 nM; together with: Cy3 exosite-II aptamer, 400 nM; direction: higher = stronger binding; sequence: GGTTGGTGTGGTTGG
Target: Prothrombin, mature alpha-thrombin (F2, Homo sapiens, UniProt P00734)
Setting: whole 15-mer aptamer, many near background
`2'F-ANA at 1 7 8 9 11 13 14` — result for “mean fluorescence intensity”: 56.5 a.u.
For `2'F-ANA at 2 7 8 9 10 14`, “mean fluorescence intensity” read 94.5 a.u.
For `2'F-ANA at 3 4 5 8 12 13 14`, “mean fluorescence intensity” read 52.8 a.u.
`2'F-ANA at 4 5 6 8 10 15` — result for “mean fluorescence intensity”: 44 a.u.
For `2'F-ANA at 2 3 4 6 7 8 9 12 15`, “mean fluorescence intensity” read 745 a.u.
For `2'F-ANA at 2 3 7 8 9 13`, “mean fluorescence intensity” read 725 a.u.
`2'F-ANA at 1 3 11 13` — result for “mean fluorescence intensity”: 303 a.u.
Under “mean fluorescence intensity”, `2'F-ANA at 4 6 7 9 10 11 12 13` is recorded as 80.4 a.u.

Study 3 — technique: DNA-protein interaction ELISA; form: double-stranded DNA, one strand shown; matrix: in vitro, bacterial lysate; tested at: not given; setting: whole dsDNA probe, crude lysate protein; reference: highest signal in screen; direction: higher = stronger binding
Target: Probable WRKY transcription factor 33, N-terminal DNA-binding domain (WRKY33, Arabidopsis thaliana, UniProt Q8S8P5, residues 169-264)
Construct (chain): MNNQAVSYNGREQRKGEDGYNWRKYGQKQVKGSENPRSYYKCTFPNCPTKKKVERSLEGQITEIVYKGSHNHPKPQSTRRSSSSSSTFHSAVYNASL
For `AAAAAAAAATTTCGAGCCTCGGCGTAAAAA`, the relative absorbance was 14.6 % of maximum.
`AAAAAACTTCTAGTTTATGCTTCCGTAAAA` gave a relative absorbance of 23.5 % of maximum.
`AAAAAAGTCTAGTCGTAAAAA` has a relative absorbance of 38.6 % of maximum.
`AAAAAAGCTAGTGCTGCCACCAACGTAAAA` gave a relative absorbance of 18.6 % of maximum.
For `AAAAAATGTCCATCTTGCGTCTGTATAAAA`, the relative absorbance was 13.5 % of maximum.
`AAAAAATGCCGAGACCCCATGCCGGCAAAA` has a relative absorbance of 16.6 % of maximum.
`AAAAAACACAGCATTAGGCTATCGGTAAAA` has a relative absorbance of 20.4 % of maximum.
`AAAAAAGGCTTCCACTTTGAGTTTGCAAAA` gave a relative absorbance of 26.4 % of maximum.

Single results of other studies
With `CN1CCN(c2ccc3nc(-c4c(N)c5c(F)cccc5[nH]c4=O)[nH]c3c2)CC1` the remaining activity was 31.8% (Interleukin-1 receptor-associated kinase 4 (IRAK4, Homo sapiens, UniProt Q9NWZ3); enzyme activity, inhibitor; 0.5 µM; reference: control).

Repeated from above (study 2):
For `2'F-ANA at 2 3 4 6 7 8 9 12 15`, “mean fluorescence intensity” read 745 a.u.
